# Assay results of several laboratories.
# Numbered parts are unrelated; each lists some results of a single study. Positions count from the first letter of the parent shown.

# Block 1
# Target: CCNB3, cyclin fold, Cln2 fusion (human)
# Method: yeast growth competition, sequencing
# Sample: yeast
# Notes: weak parent motif
# Baseline: not given
# Reading: higher = stronger binding
# Starting sequence: CDC6 docking peptide (human); TLKGRRLVFDNQL
Change,normalised enrichment score
N11M,0.102
Q12W,0.578
K3Y,0.631
D10A,-0.124
L7G,-0.254
N11V,0.206
K3C,0.363
R5S,-0.59
R5T,0.914
N11T,0.127
T1A,0.464
N11E,0.201

# Block 2
# Target: Histone acetyltransferase KAT6A, both winged helices, GST fusion (KAT6A, Homo sapiens, UniProt Q92794, residues 1-181)
# Method: protein binding microarray
# Molecule type: double-stranded DNA, one strand shown
# Sample: in vitro
# Concentration: not given
# Notes: 8-mer, flanks averaged, mean of 2 arrays, mostly near background
# Baseline: not given
# Reading: higher = stronger binding
# Construct (chain): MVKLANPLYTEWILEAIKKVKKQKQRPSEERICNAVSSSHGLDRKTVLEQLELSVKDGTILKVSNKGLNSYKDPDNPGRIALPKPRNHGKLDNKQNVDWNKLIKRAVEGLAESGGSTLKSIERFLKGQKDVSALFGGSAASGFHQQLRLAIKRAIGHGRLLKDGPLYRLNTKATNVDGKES
Sequence,E-score
GACCACAC,-0.183
GCTGTTCA,-0.0872
ATGGATAG,-0.132
GACGACGA,-0.0802
ATTGCTCA,-0.0628
AGTGGAGA,-0.168
CGTAAGCC,0.136
ATGTCAGC,-0.0292
AACTCCTC,-0.134
GTGTCTCA,-0.0735

# Block 3
# Target: Sal-like protein 4, full length isoform B (SALL4, Homo sapiens, UniProt Q9UJQ4-2, residues 1-616)
# Method: universal PBM
# Molecule type: double-stranded DNA, one strand shown
# Sample: in vitro
# Concentration: not given
# Notes: 8-mer, flanks averaged, mean of replicates
# Reading: higher = stronger binding
# Target sequence (chain): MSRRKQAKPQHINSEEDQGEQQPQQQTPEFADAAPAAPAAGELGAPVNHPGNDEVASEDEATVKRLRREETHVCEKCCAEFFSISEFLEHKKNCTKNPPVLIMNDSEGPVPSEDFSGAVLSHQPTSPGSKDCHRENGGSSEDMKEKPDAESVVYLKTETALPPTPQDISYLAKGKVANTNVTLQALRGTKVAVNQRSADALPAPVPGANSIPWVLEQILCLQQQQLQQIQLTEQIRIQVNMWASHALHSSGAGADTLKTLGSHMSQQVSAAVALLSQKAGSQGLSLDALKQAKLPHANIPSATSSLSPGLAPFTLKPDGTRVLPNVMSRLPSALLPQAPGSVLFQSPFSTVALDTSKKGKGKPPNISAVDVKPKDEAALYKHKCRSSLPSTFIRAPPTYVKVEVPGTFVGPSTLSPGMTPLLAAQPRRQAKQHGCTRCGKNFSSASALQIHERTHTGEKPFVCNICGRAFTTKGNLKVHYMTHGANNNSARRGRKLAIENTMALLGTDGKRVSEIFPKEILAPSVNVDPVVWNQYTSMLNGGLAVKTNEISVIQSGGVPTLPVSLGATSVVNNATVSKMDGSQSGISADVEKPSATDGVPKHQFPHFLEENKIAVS
Sequence,E-score
CCGCAGGA,-0.378
CATAGTTC,0.0103
AAGACGTA,0.146
CAAGTGAA,0.17
ACGATCAC,-0.0948
TAGTGGAA,-0.0794
ATTCGTTA,0.185

# Other studies, line by line
Substance,target,assay,test system,setting,how to read,endpoint,value
"PhoQ, residues 284 288 289 292 302 303 TVTVVA","PhoP, residues 12 14 15 18 19 MHTVL (Escherichia coli, UniProt P23836)","Sort-seq, refers to: YFP reporter",E. coli,"PhoQ-PhoP variant library, added: 10 µM Mg2+","baseline: high Mg2+ state, higher = stronger signaling",fold induction,13.9

# Some of these lines once more (block 2):
Sequence,E-score
GACCACAC,-0.183
ATGGATAG,-0.132
